Published values gathered from unrelated publications.
Parts stem from different laboratories: compare values within a part only.

Sample 1
Target: RING finger protein unkempt homolog, zinc fingers 1-6, GST-SBP tag (UNK, Homo sapiens, UniProt Q9C0B0, residues 30-357)
UniProt Q9C0B0, sequence (30-357, looked up): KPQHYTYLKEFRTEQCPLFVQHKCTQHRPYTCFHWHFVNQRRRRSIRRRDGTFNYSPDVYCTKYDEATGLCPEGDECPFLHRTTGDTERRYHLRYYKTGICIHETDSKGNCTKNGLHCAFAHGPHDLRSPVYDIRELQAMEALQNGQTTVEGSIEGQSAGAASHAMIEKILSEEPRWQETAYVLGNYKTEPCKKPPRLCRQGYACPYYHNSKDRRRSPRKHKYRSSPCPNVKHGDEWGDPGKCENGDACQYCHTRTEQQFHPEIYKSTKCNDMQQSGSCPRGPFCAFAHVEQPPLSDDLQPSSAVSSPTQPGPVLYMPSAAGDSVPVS
Technique: RNA Bind-n-Seq
Form: RNA
Sample: in vitro
Tested at: not given
Notes: RNA with constant flanks, human-mouse chimeric sites, ends assumed
Reference: input RNA pool
Reading: higher = stronger binding
Quantity: bound/input enrichment
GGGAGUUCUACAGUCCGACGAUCUAAGUUAUUUUGUACAGCUUUGUAAAUUGUAUAGCUUUUUAUAUUGCCAUGUUUAUUUUGUUUGGGUGCUUUAUUAAAUUAAGUACAUAGCUAAGGUAAUGAACAUCUUUUUCAGUAAUUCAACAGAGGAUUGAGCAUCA: 1.11 ratio
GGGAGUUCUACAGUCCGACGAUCGUUGCCAGCUUCCGGUUCCGUUGGGCUCGGUUCUCUCCUGAGCUACGUGUCUCUACGCUCUCAAUCCGCCAUCCAACGGCAGUCAUGCAGGUAAUGCUGCAGUUUGUGCCCAGCCGGCAGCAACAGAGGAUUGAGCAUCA: 0.104 ratio
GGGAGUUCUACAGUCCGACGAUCCUGUGACCACAAGAUCCUGAAGUUUGAGCAGCUGAAGUUGACUCCCUCCCCUUCCCUGAACCCCCCCCCACUGCCCCCCCAUCCCCCAGUGUCGGCUGAGAUGUUGCCUCUGCACGGUUCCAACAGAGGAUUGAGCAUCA: 0.661 ratio
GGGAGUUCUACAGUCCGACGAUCCCCCAAUACCAUUUGCAAGAGUUGGAACUGCAUUCUUUUUUUAAAAAACAUGUAUACAUUUUAGGGCUGUAGAUUUAUUUUCCUGGUUUUGUUUUUCAUUGCUGACUUUUGAGCACAGAACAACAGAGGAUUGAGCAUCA: 0.898 ratio
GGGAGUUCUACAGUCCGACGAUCAGAAUCUUGGGACUGUUUUACUUAAUUGGUCAUUGAUAGCUUAACAAACAUGGAGAUAAGAUUAGAAAUCUUGACAUCAACAGGUAUCAAGCAGAAAAAACCAUGGCCACGUGUCUCCUGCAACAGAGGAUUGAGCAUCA: 0.143 ratio
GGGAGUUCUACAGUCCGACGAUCCAGCUGCAGACAGAAAAGGAUGAGAAGGAGCUGUAUAAGGUACAUUUGAAGAAUACAGAAAUAGAAAAUACGAAGCUUAUGUCAGAGAUACAGACUUUAAAAAAUUUAGAUGGAAACAAACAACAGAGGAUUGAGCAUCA: 2.88 ratio
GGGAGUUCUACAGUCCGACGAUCGUGUCCUGCUUUCAACUUAAAUCACUGCAUUUUUACUACUGUUCUGUGAGCAUCAGGACUGUAGCGCUGUGUCACCACAUGAGAGUUCAGAAGCAGCCUUUCUGUGGAGAGUGAGAAUGACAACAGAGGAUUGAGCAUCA: 0.132 ratio
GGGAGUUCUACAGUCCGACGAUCGGGGAGAAACCUUAUGAGUGUGUGCAGUGUGGGAAAUCCUACAGUCAGAGCUCAAACCUUUUUAGACAUCAGAGACGACACAAUGCAGAAAAACUUUUGAAUGUUGUGAAGGUUUAAGAACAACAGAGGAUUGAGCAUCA: 0.255 ratio
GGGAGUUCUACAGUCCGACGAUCAAAGAGAAACUAAAGCAACUAAUAGAGAAGAGGAUUGGCAAAGAGAAUUUCAUAGAGAAACUAGGAUUUAUUAGCAAAACAUGAGUUUAUUCCAGAGGCAUCUCAGAACCCCAGCCAAACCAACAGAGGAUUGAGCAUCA: 10.2 ratio
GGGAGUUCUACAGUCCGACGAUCAUCAAAUACUUUGGGGACAUCAUUAGUGUGGGACAGAGAUUGUUGCAAGGAGCUCGGAUUUUAGGAAUUCCAGUUAUCAUAACGGAACAAUACCCCAAAGGACUUGGCAGCACCGUUCAACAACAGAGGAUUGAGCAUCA: 0.312 ratio
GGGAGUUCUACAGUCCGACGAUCAUUCCGAUUAUGGACACCGGUGAAAACCCAGAGGUUCCCUUCCCUCGGGACAUGAUUGACUUAGAGGCCAAUUUUGAGAAGAUUGAAAAUGAACUGAAGGAAAUCAACACAAACCAGGAACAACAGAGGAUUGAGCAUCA: 0.149 ratio

Sample 2
Target: Interferon regulatory factor 5, full length, phosphomimetic (IRF5, Homo sapiens, UniProt Q13568-2, residues 1-514, S451D/S453D/S456D/S462D)
Technique: protein-binding microarray
Form: double-stranded DNA, one strand shown
Sample: in vitro
Tested at: 940 nM top
Notes: 60-bp whole probe
With: salmon DNA 0.4 mg/ml
Reference: random background probes
Reading: higher = stronger binding
Quantity: fitted relative affinity
Constant ends, left off below: GCCTAGCAC … GTCTTGATTCGCTTGACGCTGCTG
GCTGGGTTTTCTTGGCACAGGTGCTAG: -0.0495 z-score
GACCGACTGGACACTGGGGACGTGCTA: -0.168 z-score
TTAGGTTACGGGTTTCGGTTAGTGCTA: 5.67 z-score
GACGGTTTCGACTTTCGGTACGTGCTA: 8.03 z-score
TTAGGTATCGGGTGTCGGTTAGTGCTA: 5.99 z-score
GACGGACTGCTTCTCATGACGTGCTAG: 0.143 z-score
GACAATCTCAGTTTCGAGACGTGCTAG: 4.4 z-score
GACGGACTGGGTATCGGGTCGTGCTAG: 2.08 z-score
GACGGACTGGACTTTCTGGACGTGCTA: -0.439 z-score
TTAGGTTTCGGTCCCGGTTAGTGCTAG: 15 z-score
GTCAGCGGTGGTGTTCGGTGGTGCTAG: -0.58 z-score
GACGGTTACGGTCTCGGGACGTGCTAG: 0.592 z-score
GACGGTTTCGACACCGGGGACGTGCTA: 7.21 z-score
GACGGTATCGACTTTCGGGTCGTGCTA: 5.6 z-score
GACGCTATCGGTATCGGGACGTGCTAG: 1.94 z-score
TTAGGTCTCCTTTTCCATTAGTGCTAG: 0.654 z-score
TTAGATTTCGGGTTTCCATTAGTGCTA: 1.81 z-score
TTAGGTTTCCGTATCCTTTAGTGCTAG: 2.64 z-score
TTAGATCTCAGACTGGATAAGTGCTAG: -0.3 z-score
GACGATTTCAGTATCGAGTCGTGCTAG: 4.18 z-score
TCATTCATGAAATTTTAAACTGTGCTA: 0.243 z-score
GACGGTATCCATTTCCTGACGTGCTAG: 0.575 z-score
AACGGTATCCTTCTCCTGACGTGCTAG: 0.898 z-score
TTAGGTCTCCTTCTACTTTAGTGCTAG: 0.592 z-score
CTGGGCAGGATGAGTTCCAGGTGCTAG: 0.577 z-score

Sample 3
Target: Histone acetyltransferase KAT6A, winged helix 1, GST fusion (KAT6A, Homo sapiens, UniProt Q92794, residues 1-85)
Technique: protein binding microarray
Form: double-stranded DNA, one strand shown
Sample: in vitro
Tested at: not given
Notes: 8-mer, flanks averaged, mean of 2 arrays, mostly near background
Reference: not given
Reading: higher = stronger binding
Quantity: E-score
Construct (chain): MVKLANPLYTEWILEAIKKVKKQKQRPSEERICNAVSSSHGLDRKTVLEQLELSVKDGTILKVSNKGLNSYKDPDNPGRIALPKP
ACTCACGC: 0.137
CAAGTATA: -0.0686
AAACCCGA: 0.156
ATACCTGG: -0.13
CTCGAAAG: -0.0548
ATGCAGGC: -0.134
CGCGTTAA: 0.291
GCGTTCGA: 0.0799
AATATGAA: -0.154
AATAATTC: 0.0522
GTAACTAA: 0.0801
GTAGTGAC: 0.0353
AGACATGG: -0.163
CGCGCACA: 0.404
ACTGAATC: -0.0936
GTCTGCAC: -0.022
CACCTTGG: -0.229
AGTTGGCG: 0.0997
CACCTGCG: 0.0951
AAGAGAAT: -0.173
ATTTAATC: -0.159
AAAGTCTA: -0.128
ATGTGCCA: -0.159
CAGGTCAA: -0.219
ATTTTTTA: -0.155

Sample 4
Target: RNA binding protein fox-1 homolog 2, RRM domain, GST-SBP tag (RBFOX2, Homo sapiens, UniProt O43251-10, residues 100-194)
Technique: RNA Bind-n-Seq
Form: RNA
Sample: in vitro
Tested at: 365 nM
Notes: natural RNA segment, single round, ends assumed
Reference: no-protein control
Reading: higher = stronger binding
Quantity: RBNS enrichment (R)
Target sequence (chain): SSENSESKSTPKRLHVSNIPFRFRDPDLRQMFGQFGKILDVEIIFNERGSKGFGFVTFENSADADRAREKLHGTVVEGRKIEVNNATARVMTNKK
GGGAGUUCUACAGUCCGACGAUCAGUCAAGUGAUGACACGACACACUUGAAACCCUGGCAAGUGGCUGCAAGGUGAGGAUUGGACUCGUGGGUGCCAGGAUCGGCUGGAGGACCUCCUGCCAAAGAGAGCUUUUGGAAUUCUCGGGUGCCAA: 0.602
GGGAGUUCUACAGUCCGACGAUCUGCAAGCACAAGAACAGACACCUGGUCAGCAUGGUGCUGAAACCCCUUUCUCUUCACUGUCAUGGUGCGAGAAAAGCAUGCCAUGUCUACGAGUAGGAUCUCUUCACGGAUGGAAUUCUCGGGUGCCAA: 8.24
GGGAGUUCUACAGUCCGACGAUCAACAACUCCUUGCCCCCAGGGCUCUGGCUGCCAGGGCCUACUGCUGCUUUCCUGGGAAGCCGCAAGUUCAGUCAGUGGGGCACACAGGCUUUGUUUCAGCCUGGAAGUGAUGGAAUUCUCGGGUGCCAA: 0.271
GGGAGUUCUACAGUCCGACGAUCUGUUUUCUGAGCCCUCCGGACCUGAGACUGAGUUUUGUCUUUUUCCUUUAGCCUUAGCAGUGGGUAUGAGGUGUGCAGGGGGAGCUGGGUGGCUUCACUCCGCCCAUUCCUGGAAUUCUCGGGUGCCAA: 0.459
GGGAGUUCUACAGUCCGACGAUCUGGGGAUACAGCACCUGCUUCACCGCUGCCUCGUGUGUGUGAAGACCAAGGAGACCCCCAAGGGUACCACUGCCUGAGGACAGCAGAGAGAACCUGCCUCCCUCCCAGAAUGGAAUUCUCGGGUGCCAA: 0.496
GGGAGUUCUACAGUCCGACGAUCACUAGCUGUGCAGAAGAGCAGAUAACUAGCGCUGCUCUGGCAUUAAUCCCAGGAACCACUAGCAGUAGUGGGGCGCCGCCAAUCUAACAUGAGCACAGGUGCUUCAUGACUGGAAUUCUCGGGUGCCAA: 0.223
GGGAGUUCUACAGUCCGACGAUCUCAGCCCACCAGGGUCCAGGGAGAUGUUCGUUCUCGCUUUAAGUCAGGAGUCACAAAUGACUUUUUUUUUUCAAUUAAGGAAAAAGCUCCAUCUCUACCUUUAACAUCACUGGAAUUCUCGGGUGCCAA: 0.27
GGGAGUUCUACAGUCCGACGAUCGCUGUGUCCUGUCUACCUGUGUGUUCUCUGACUACCGCACUGGCCAUUAAAUAUGGCAGAGACUGCCCACCGCUGUCCUGAGGAAGUGUUUGUGGGGGGAGGGCUGGGAAUGGAAUUCUCGGGUGCCAA: 1.4
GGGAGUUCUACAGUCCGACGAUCAAAUGAUCCACACUUUCACACUGCCACUUCUGACCUUCACUGCCAUCUUCAGACGGUUCCUUUUGAUCAGCCCCUGGAAGAUGGGUCCCUCCUAAUCUAUGUCAUAGAAUUGGAAUUCUCGGGUGCCAA: 0.321
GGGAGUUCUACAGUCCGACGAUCAGGGUUCAGCCUUGGGAGGCCAGGCUGGCUGGCUCACUCUCUUUCUCAUUCACUGCCAGACCCCACAUGGAGAGGCACCCAAAAGGAGAAGUUGACCAUUCCAUGUCUCAUGGAAUUCUCGGGUGCCAA: 0.339
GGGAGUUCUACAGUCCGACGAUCUAUCGGUUCUCAAUAAAUUACUGAGCAGCUUUGUUUGGGGAGGGAAGUCCCUACCAUCCUUGUUUAGUCUAUAUUAAGAAAAUCUGUGUCUUUUUAAUAUUCUUGUGAUGUGGAAUUCUCGGGUGCCAA: 0.585
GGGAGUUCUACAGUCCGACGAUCCACAUACAGUUUUAUGCUCUUUUUUACUCAUUGAAAUGUCACGUACUGUCUGAUUGGCUUGUAGAAUUGUUAUAGACUGCCGUGCAUUAGCACAGAUUUUAAUUGUCAUGUGGAAUUCUCGGGUGCCAA: 0.958

Excerpt of the above (sample 3):
GTAACTAA: 0.0801
GTAGTGAC: 0.0353
AGACATGG: -0.163
CGCGCACA: 0.404
